Results collected from several papers.
Numbered parts are unrelated; each lists some results of a single study.
UniProt P10721, sequence (whole entry, unmodified, looked up): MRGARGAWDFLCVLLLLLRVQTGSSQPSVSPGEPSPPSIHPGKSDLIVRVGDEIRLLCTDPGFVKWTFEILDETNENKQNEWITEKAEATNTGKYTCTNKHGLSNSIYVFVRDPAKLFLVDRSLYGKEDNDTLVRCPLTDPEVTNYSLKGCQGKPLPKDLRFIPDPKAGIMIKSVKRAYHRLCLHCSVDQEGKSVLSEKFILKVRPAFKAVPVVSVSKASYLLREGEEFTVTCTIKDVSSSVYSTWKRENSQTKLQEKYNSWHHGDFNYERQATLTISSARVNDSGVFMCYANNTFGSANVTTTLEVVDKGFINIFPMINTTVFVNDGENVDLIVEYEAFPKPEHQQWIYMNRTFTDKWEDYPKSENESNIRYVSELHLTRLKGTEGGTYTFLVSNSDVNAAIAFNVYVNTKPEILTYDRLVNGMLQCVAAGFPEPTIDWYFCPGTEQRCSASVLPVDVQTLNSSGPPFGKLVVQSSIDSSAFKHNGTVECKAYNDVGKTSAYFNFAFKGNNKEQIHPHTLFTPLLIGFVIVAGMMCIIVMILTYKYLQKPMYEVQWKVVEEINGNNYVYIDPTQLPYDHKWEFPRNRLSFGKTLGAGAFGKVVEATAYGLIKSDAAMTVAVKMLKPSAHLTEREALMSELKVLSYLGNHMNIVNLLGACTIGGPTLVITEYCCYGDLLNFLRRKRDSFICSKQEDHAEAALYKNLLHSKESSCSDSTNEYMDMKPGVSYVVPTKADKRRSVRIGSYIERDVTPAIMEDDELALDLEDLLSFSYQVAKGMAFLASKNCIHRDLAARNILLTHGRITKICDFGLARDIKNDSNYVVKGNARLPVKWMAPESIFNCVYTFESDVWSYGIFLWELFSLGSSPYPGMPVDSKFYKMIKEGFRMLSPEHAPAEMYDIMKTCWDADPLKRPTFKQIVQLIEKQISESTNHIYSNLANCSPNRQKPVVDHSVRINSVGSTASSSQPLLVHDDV
UniProt P21860, sequence (whole entry, looked up): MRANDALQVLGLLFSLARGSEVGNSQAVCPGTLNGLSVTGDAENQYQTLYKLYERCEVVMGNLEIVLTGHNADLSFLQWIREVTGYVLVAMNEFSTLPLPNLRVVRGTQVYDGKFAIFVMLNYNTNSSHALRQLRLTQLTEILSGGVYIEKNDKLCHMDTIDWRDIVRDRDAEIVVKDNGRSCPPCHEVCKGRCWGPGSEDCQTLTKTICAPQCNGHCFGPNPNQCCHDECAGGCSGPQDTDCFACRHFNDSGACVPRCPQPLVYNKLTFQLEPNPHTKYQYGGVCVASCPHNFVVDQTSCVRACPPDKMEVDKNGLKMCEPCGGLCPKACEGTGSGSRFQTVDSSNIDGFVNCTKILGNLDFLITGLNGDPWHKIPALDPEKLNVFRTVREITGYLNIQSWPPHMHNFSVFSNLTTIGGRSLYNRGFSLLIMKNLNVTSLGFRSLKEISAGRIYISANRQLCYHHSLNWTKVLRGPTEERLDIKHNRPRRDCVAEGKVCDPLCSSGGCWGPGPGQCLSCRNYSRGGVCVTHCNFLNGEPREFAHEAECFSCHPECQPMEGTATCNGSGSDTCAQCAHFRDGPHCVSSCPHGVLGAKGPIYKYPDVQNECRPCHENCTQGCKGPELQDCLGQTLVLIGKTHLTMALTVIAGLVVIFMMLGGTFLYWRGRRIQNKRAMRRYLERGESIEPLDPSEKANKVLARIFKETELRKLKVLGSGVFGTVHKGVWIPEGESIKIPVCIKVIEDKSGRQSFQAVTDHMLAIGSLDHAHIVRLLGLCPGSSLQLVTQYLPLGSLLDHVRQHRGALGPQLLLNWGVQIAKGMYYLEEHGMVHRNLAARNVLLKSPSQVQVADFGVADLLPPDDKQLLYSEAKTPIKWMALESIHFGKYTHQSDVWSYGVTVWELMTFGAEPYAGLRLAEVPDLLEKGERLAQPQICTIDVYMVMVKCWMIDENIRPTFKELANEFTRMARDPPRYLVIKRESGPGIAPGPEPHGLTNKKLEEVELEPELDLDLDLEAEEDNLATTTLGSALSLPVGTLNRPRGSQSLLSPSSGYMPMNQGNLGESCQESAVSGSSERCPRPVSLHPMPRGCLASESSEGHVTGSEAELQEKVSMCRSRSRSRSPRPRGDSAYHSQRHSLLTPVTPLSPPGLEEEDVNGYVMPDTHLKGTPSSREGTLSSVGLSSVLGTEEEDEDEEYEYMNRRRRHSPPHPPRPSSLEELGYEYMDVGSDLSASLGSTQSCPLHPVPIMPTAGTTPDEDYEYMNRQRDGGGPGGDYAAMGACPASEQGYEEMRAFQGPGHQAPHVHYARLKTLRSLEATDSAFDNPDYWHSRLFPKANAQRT
UniProt P54762, sequence (whole entry, looked up): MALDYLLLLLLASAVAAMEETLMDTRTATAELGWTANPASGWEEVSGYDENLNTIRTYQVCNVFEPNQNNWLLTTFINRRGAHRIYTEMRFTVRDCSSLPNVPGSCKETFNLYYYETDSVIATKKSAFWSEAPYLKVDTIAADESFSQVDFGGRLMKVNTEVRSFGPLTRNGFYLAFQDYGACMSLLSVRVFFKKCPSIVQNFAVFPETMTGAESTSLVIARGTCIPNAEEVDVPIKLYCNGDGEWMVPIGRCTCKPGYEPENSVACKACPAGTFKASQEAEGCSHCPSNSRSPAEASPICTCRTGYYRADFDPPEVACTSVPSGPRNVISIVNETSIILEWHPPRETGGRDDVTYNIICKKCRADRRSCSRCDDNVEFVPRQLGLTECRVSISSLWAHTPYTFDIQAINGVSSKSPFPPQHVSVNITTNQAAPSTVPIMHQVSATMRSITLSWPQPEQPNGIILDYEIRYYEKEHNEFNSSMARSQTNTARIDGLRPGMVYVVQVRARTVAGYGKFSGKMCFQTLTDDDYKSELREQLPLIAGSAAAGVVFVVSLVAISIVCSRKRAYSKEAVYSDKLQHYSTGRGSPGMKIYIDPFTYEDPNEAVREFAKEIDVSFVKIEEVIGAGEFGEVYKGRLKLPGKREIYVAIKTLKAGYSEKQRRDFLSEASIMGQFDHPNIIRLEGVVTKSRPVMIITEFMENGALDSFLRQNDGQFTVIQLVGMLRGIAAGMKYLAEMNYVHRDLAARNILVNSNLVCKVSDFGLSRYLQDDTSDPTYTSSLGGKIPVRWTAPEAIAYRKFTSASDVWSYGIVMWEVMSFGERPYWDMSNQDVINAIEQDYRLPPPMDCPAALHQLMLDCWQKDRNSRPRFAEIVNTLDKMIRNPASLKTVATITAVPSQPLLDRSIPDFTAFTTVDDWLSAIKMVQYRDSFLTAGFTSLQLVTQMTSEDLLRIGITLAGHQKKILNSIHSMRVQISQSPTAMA
UniProt P36507, sequence (whole entry, looked up): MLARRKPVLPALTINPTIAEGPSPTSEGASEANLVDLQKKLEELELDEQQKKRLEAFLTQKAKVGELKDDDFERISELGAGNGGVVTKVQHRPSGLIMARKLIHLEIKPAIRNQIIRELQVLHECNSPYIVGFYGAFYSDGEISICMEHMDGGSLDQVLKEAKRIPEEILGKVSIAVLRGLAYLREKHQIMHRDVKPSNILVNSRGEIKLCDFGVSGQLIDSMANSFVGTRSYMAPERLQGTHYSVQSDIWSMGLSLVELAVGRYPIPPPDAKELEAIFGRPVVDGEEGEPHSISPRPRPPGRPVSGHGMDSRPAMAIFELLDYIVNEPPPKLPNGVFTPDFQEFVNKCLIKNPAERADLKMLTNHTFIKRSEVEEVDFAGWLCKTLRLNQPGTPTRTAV

Block 1
Organism: Sarcocystis neurona
Effect on: parasite growth
Concentration: 10 µM
Time: 96 h
Setting: second screen
Relative to: untreated
| SMILES | log2 fold change |
| --- | --- |
| c1ccc(-c2ccc(C(c3ccccc3)n3ccnc3)cc2)cc1 (stereo not drawn) | -0.63 |
| C/C(=C\C(=O)OCCCCCCCCC(=O)O)C[C@@H]1OC[C@H](C[C@@H]2O[C@H]2[C@@H](C)[C@H](C)O)[C@@H](O)[C@H]1O | -0.06 |
| COc1cccc2c1C(=O)c1c(O)c3c(c(O)c1C2=O)C[C@@](O)(C(=O)CO)C[C@@H]3O[C@H]1C[C@H](N)[C@@H](O)[C@H](C)O1 | -1.66 |
| CC(=O)OCC(=O)[C@@]1(O)CC[C@H]2[C@@H]3CCC4=CC(=O)C=C[C@]4(C)[C@H]3[C@@H](O)C[C@@]21C | -0.07 |
| O=C(O)c1cc(-c2ccc(F)cc2F)ccc1O | 0.28 |
| COC(=O)C1=C(C)NC(C)=C(C(=O)OC(C)C)C1c1cccc2nonc12 (stereo not drawn) | 0.75 |
| Oc1ccc(C2CNCCc3c2cc(O)c(O)c3Cl)cc1 (stereo not drawn) | 0.56 |
| CCCCCCCCCCC[C@@H](C[C@@H]1OC(=O)[C@H]1CCCCCC)OC(=O)[C@H](CC(C)C)NC=O | -0.35 |
| Cc1onc(-c2ccccc2)c1-c1ccc(S(N)(=O)=O)cc1 | 0.29 |
| c1cnc(N2CCN(Cc3ccc4c(c3)OCO4)CC2)nc1 | 0.6 |
| CCCNCC(O)COc1ccccc1C(=O)CCc1ccccc1 (stereo not drawn) | -1.47 |
| CC(=O)OCC(=O)[C@@]12OC3(CCCC3)O[C@@H]1C[C@H]1[C@@H]3CCC4=CC(=O)C=C[C@]4(C)[C@@]3(F)[C@@H](O)C[C@@]12C | 0.2 |

Block 2
Target: Calcium/calmodulin-dependent protein kinase type II subunit alpha (CAMK2A, Homo sapiens, UniProt Q9UQM7)
UniProt Q9UQM7, sequence (whole entry, looked up): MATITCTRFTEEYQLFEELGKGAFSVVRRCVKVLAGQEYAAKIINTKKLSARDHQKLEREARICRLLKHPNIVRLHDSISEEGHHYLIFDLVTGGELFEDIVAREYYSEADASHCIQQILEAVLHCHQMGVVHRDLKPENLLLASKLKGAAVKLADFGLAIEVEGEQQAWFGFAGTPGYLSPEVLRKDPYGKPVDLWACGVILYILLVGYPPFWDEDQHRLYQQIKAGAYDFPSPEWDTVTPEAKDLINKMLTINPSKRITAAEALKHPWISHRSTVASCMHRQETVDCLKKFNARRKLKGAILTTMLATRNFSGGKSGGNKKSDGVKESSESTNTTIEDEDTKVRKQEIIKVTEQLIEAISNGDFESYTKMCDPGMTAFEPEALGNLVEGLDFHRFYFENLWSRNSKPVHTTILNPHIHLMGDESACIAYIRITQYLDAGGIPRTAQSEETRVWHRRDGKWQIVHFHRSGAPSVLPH
Effect on: enzyme activity
Action: inhibitor
Concentration: 10 µM
| Structure (SMILES) | inhibition [%] |
| --- | --- |
| CC(C)/N=c1\cc2n(-c3ccc(Cl)cc3)c3ccccc3nc-2cc1Nc1ccc(Cl)cc1 | 9 |
| C/C=C/c1ccc(OC)c(OC)c1 | -43 |
| CC(C)=C/C=C1\O[C@@H]2CC(C)=CC(=O)[C@@H]2[C@]1(C)O | -19 |
| CCn1cnc2c(N)ncnc21 | 7 |
| COC1=CC(=O)C[C@@H](C)[C@]12Oc1c(Cl)c(OC)cc(OC)c1C2=O | 3 |
| C1CCN2C[C@@H]3C[C@@H](CN4CCCC[C@@H]34)[C@H]2C1 | -8 |
| C/C=C/C[C@@H](C)[C@@H](O)[C@H]1C(=O)N[C@@H](C(C)C)C(=O)N(C)CC(=O)N(C)[C@@H](CC(C)C)C(=O)N[C@@H](C(C)C)C(=O)N(C)[C@@H](CC(C)C)C(=O)N[C@@H](C)C(=O)N[C@H](C)C(=O)N(C)[C@@H](CC(C)C)C(=O)N(C)[C@@H](CC(C)C)C(=O)N(C)[C@@H](C(C)C)C(=O)N1C | -15 |
| COc1ccc(CCC(=O)c2ccc(O)cc2)c(OC)c1 | -4 |
| O=C(O)c1cccnc1 | 61 |
| Cn1cnc2c(ncn2[C@@H]2O[C@H](CO)[C@@H](O)[C@H]2O)c1=N | 28 |
| CC1=CC(=O)CC1 | -6 |
| CC(N)=O | -10 |
| COc1c(/C=C/C(=O)c2ccc(O)cc2)ccc(O)c1O | -10 |
| CC(C)(N)C(=O)O | 6 |
| COC1=C(OC)C(=O)C(C/C=C(\C)CC/C=C(\C)CC/C=C(\C)CC/C=C(\C)CC/C=C(\C)CC/C=C(\C)CC/C=C(\C)CC/C=C(\C)CCC=C(C)C)=C(C)C1=O | -7 |
| CC(C)(O)[C@H]1CC[C@@](C)([C@H]2CC[C@]3(C)[C@@H]2[C@H](O)C[C@@H]2[C@@]4(C)CC[C@H](O)C(C)(C)[C@@H]4[C@@H](O[C@@H]4O[C@H](CO)[C@@H](O)[C@H](O)[C@H]4O)C[C@]23C)O1 | 21 |
| CO[C@]12C[C@@H](COC(=O)c3cncc(Br)c3)CN(C)[C@@H]1Cc1cn(C)c3cccc2c13 | 0 |
| CCOC(=O)c1c(CSc2ccccc2)n(C)c2cc(Br)c(O)c(CN(C)C)c12 | -4 |
| CC(O)(CC(=O)O)CC(=O)O | -7 |
| C[C@@H]1O[C@@H](OC[C@H]2O[C@@H](Oc3cc(O)c4c(=O)cc(-c5ccc(O)cc5)oc4c3)[C@H](O[C@@H]3O[C@@H](C)[C@H](O)[C@@H](O)[C@H]3O)[C@@H](O)[C@@H]2O)[C@H](O)[C@H](O)[C@H]1O | -9 |

Block 3
Compound: CN(c1ccnc(CNc2nc(Nc3ccc4c(c3)CC(=O)N4)ncc2C(F)(F)F)n1)S(C)(=O)=O
Technique: competition with immobilised ligand
Concentration: 1 µM
| target | effect on | remaining binding [%] |
| --- | --- | --- |
| Dual specificity mitogen-activated protein kinase kinase 2 (MAP2K2, Homo sapiens, UniProt P36507) | cell-free assay | 82 |
| Cyclin-dependent kinase-like 5 (CDKL5, Homo sapiens, UniProt O76039) | cell-free assay | 87 |
| Tyrosine-protein kinase ABL1, non-phosphorylated (ABL1, Homo sapiens, UniProt P00519) | cell-free assay | 77 |
| Serine/threonine-protein kinase Nek10 (NEK10, Homo sapiens, UniProt Q6ZWH5) | cell-free assay | 90 |
| Epithelial discoidin domain-containing receptor 1 (DDR1, Homo sapiens, UniProt Q08345) | cell-free assay | 80 |
| Serine/threonine-protein kinase Nek11 (NEK11, Homo sapiens, UniProt Q8NG66) | cell-free assay | 100 |
| Protein kinase C delta type (PRKCD, Homo sapiens, UniProt Q05655) | cell-free assay | 78 |
| Mast/stem cell growth factor receptor Kit (KIT, Homo sapiens, UniProt P10721, L576P) | cell-free assay | 66 |
| Receptor tyrosine-protein kinase erbB-3 (ERBB3, Homo sapiens, UniProt P21860) | cell-free assay | 78 |
| Tyrosine-protein kinase ABL1, non-phosphorylated (ABL1, Homo sapiens, UniProt P00519, H396P) | cell-free assay | 26 |
| Non-receptor tyrosine-protein kinase TNK1 (TNK1, Homo sapiens, UniProt Q13470) | cell-free assay | 65 |
| Receptor-interacting serine/threonine-protein kinase 1 (RIPK1, Homo sapiens, UniProt Q13546) | cell-free assay | 100 |
| Serine/threonine-protein kinase TAO1 (TAOK1, Homo sapiens, UniProt Q7L7X3) | cell-free assay | 3.7 |
| Serine/threonine-protein kinase 4 (STK4, Homo sapiens, UniProt Q13043) | cell-free assay | 100 |
| Ephrin type-B receptor 1 (EPHB1, Homo sapiens, UniProt P54762) | cell-free assay | 99 |
| Myosin light chain kinase, smooth muscle (MYLK, Homo sapiens, UniProt Q15746) | cell-free assay | 71 |
| SRSF protein kinase 2 (SRPK2, Homo sapiens, UniProt P78362) | cell-free assay | 40 |
| Mast/stem cell growth factor receptor Kit (KIT, Homo sapiens, UniProt P10721, T670I/V559D) | cell-free assay | 100 |
| Serine/threonine-protein kinase ULK1 (ULK1, Homo sapiens, UniProt O75385) | binding | 1.2 |
| Mitogen-activated protein kinase kinase kinase 11 (MAP3K11, Homo sapiens, UniProt Q16584) | cell-free assay | 32 |
| Citron Rho-interacting kinase (CIT, Homo sapiens, UniProt O14578) | cell-free assay | 99 |
| Dual specificity tyrosine-phosphorylation-regulated kinase 1A (DYRK1A, Homo sapiens, UniProt Q13627) | cell-free assay | 19 |
| Ribosomal protein S6 kinase alpha-4, C-terminal kinase domain (RPS6KA4, Homo sapiens, UniProt O75676) | cell-free assay | 72 |
| cGMP-dependent protein kinase 1 (PRKG1, Homo sapiens, UniProt Q13976) | cell-free assay | 100 |
| Serine/threonine-protein kinase 38 (STK38, Homo sapiens, UniProt Q15208) | cell-free assay | 65 |

Block 4
Target: SRSF protein kinase 1 (SRPK1, Homo sapiens, UniProt Q96SB4)
UniProt Q96SB4, sequence (whole entry, looked up): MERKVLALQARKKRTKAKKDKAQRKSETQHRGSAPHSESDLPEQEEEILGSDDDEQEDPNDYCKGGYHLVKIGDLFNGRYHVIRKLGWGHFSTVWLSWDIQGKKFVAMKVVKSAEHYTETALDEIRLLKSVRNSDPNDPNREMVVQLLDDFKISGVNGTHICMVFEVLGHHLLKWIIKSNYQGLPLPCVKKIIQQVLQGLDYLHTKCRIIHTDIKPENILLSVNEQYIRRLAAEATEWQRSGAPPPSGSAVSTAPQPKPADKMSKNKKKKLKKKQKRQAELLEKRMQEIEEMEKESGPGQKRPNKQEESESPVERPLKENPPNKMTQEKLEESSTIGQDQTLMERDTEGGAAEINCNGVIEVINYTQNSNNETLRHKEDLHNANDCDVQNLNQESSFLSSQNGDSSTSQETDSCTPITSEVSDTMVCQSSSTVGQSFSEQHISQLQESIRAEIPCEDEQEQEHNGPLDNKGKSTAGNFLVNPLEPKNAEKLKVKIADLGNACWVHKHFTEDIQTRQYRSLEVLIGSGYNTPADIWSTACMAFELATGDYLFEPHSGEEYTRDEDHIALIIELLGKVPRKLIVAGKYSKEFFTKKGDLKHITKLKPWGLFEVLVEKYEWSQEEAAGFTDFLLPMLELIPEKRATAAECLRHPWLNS
Effect on: enzyme activity
Action: inhibitor
Concentration: 0.5 µM
Relative to: control
| Structure (SMILES) | remaining activity [%] |
| --- | --- |
| c1ccc(-c2[nH]ncc2-c2ccnc3ccccc23)nc1 | 98.4 |
| CCN(CC)CCNC(=O)c1c(C)[nH]c(/C=C2\C(=O)Nc3ccc(Cl)cc32)c1C | 95.9 |
| CCN(CC)C(=O)c1ccc(Nc2nc(OCC3CCCCC3)c3[nH]cnc3n2)cc1 | 91.7 |
| Nc1cccc(-c2cc3c(Oc4cccc(O)c4)ncnc3[nH]2)c1 | 107 |
| O=C1c2ccccc2-c2n[nH]c3cccc1c23 | 94.3 |
| CN(C)C[C@H]1CCn2c(c(C3=C(c4cn(C)c5ccccc45)C(=O)NC3=O)c3ccccc32)C1 | 103 |
| COc1cc2c(cc1OC)-c1[nH]nc(Nc3cccc(F)c3)c1C2 | 101 |
| Cn1nc2c3c(cccc31)C(=O)c1ccccc1-2 | 99.7 |
| N#Cc1c(NC(=O)c2cccc3ccccc23)sc2c1CCCC2 | 102 |
| O=C(Nc1cccc(Nc2nccc(Nc3cccc(C(F)(F)F)c3)n2)c1)C1CC1 | 104 |
| CN([C@@H](Cc1ccc(OS(=O)(=O)c2cccc3cnccc23)cc1)C(=O)N1CCN(c2ccccc2)CC1)S(=O)(=O)c1cccc2cnccc12 | 104 |
| Cc1cc2ncc(-c3ccccc3)nc2cc1C | 103 |
| O=c1cc(-c2cccc3c2Sc2ccccc2S3)oc(N2CCOCC2)c1 | 105 |
| Cc1cn(-c2cc(NC(=O)c3ccc(C)c(Nc4nccc(-c5cccnc5)n4)c3)cc(C(F)(F)F)c2)cn1 | 98.1 |
| Ic1cccc(CSc2nnc(-c3ccncc3)o2)c1 | 103 |
| O=C(NC(NC(=S)Nc1ccc(F)c([N+](=O)[O-])c1)C(Cl)(Cl)Cl)C(c1ccccc1)c1ccccc1 (stereo not drawn) | 99.3 |
| O=C1C(Cl)=C(N2C(=O)CCC2=O)C(=O)c2ccccc21 | 103 |
| COc1cc2ncnc(Nc3ccc(O)c(Br)c3)c2cc1OC | 91.8 |
| N#C/C(=C\c1ccc(O)c(O)c1)C(=O)NCc1ccccc1 | 104 |
| c1ccc(-c2cnc(Nc3ccc(OCCN4CCCC4)cc3)s2)cc1 | 99.9 |
| COc1cc2ncnc(Nc3cccc(Cl)c3)c2cc1OC | 102 |
| C[C@@H]1CCN(C(=O)CC#N)C[C@@H]1N(C)c1ncnc2[nH]ccc12 | 99.8 |
| Cc1nc2cc3nc(-c4cccs4)cnc3cc2n1C | 107 |
| CCN(CC)CCNC(=O)c1c(C)[nH]c(/C=C2\C(=O)Nc3ccc(F)cc32)c1C | 97 |

Excerpt of the above (block 4):
| Structure (SMILES) | remaining activity [%] |
| --- | --- |
| O=C(NC(NC(=S)Nc1ccc(F)c([N+](=O)[O-])c1)C(Cl)(Cl)Cl)C(c1ccccc1)c1ccccc1 (stereo not drawn) | 99.3 |
| O=C1C(Cl)=C(N2C(=O)CCC2=O)C(=O)c2ccccc21 | 103 |
| COc1cc2ncnc(Nc3ccc(O)c(Br)c3)c2cc1OC | 91.8 |
| N#C/C(=C\c1ccc(O)c(O)c1)C(=O)NCc1ccccc1 | 104 |
| c1ccc(-c2cnc(Nc3ccc(OCCN4CCCC4)cc3)s2)cc1 | 99.9 |
| COc1cc2ncnc(Nc3cccc(Cl)c3)c2cc1OC | 102 |
| C[C@@H]1CCN(C(=O)CC#N)C[C@@H]1N(C)c1ncnc2[nH]ccc12 | 99.8 |
| Cc1nc2cc3nc(-c4cccs4)cnc3cc2n1C | 107 |
